Published values collected from several papers.
Protocols differ between the studies behind these lines.
Organism: Staphylococcus aureus

O=C(O)c1ccc(-n2cc(/C=N/Nc3cccc(Cl)c3F)c(-c3ccc4ccccc4c3)n2)cc1
MIC (microbial growth; MRSA): 0.78 µg/mL

CN(C)c1ccc2c(CC(=O)NCCCn3cc(CCCCC(=O)Oc4c(Cl)cc(Cl)cc4-c4[nH]c(Cl)c(Cl)c4Cl)nn3)cc(=O)oc2c1
MIC (microbial growth, broth dilution; NCTC8325; 20 h): 0.125 µg/mL

COc1cccc(C2Nc3ccccc3C3=[O+][Cu-2]4([Cl])[O]c5c(cccc5OC)C=[N+]4N32)c1O (stereo not drawn)
MIC (broth microdilution; ATCC 29213; 24 h, 37 °C): 64 µg/mL

Cc1csc(NCc2cc(N(C)C)c3c(c2O)C(=O)C2=C(O)[C@]4(O)C(=O)C(C(N)=O)=C(O)[C@@H](N(C)C)[C@@H]4C[C@@H]2C3)n1
MIC (RN4250, Tet K efflux): 8 µg/mL

C[Si](C)(C)Cc1ccc(C2COC(=O)N2/N=C/c2ccc([N+](=O)[O-])o2)cc1 (stereo not drawn)
MIC (microbial growth, broth dilution; ATCC29213; 18 h): > 50 µg/mL

CCCCCCCCCCCCCCCCCCCCCCSCC1OC(OC2C(N)CC(N)C(OC3OC(CN)C(O)CC3N)C2O)C(O)C(N)C1O (stereo not drawn)
MIC (methicillin-resistant): > 150 µg/mL

CN(C)c1cc(CNC2CCCCC2)c(O)c2c1C[C@H]1C[C@H]3[C@H](N(C)C)C(O)=C(C(N)=O)C(=O)[C@@]3(O)C(O)=C1C2=O
MIC (MRSA 5, Tet M ribosome protection): 1 µg/mL

COc1cc(OC)c2c(c1)C(=O)c1cc3oc(=O)cc(-c4ccc(Cl)cc4)c3c(O)c1C2=O
MIC (microbial growth): 64 µg/mL

N#Cc1ccccc1Oc1ccc(Cl)cc1O
MIC (microbial growth, broth dilution): 8 µM

NC[C@@H]1O[C@H](O[C@H]2[C@@H](O)[C@H](O[C@@H]3[C@@H](O)[C@H](N)C[C@H](N)[C@H]3O[C@H]3O[C@H](CO)[C@@H](OCCO)[C@H](O)[C@H]3N)O[C@@H]2CO)[C@H](N)[C@@H](O)[C@@H]1O
MIC (broth microdilution; MRSA isolate AG 045): 16 to 32 µg/mL

CCCCCCCCCc1nc2cc(Cl)ccc2c(=O)n1CCN
MIC (RN6390B): 4.4 µg/mL

CN(C)Cc1cc(N(C)C)c2c(c1O)C(=O)C1=C(O)[C@]3(O)C(=O)C(C(N)=O)=C(O)[C@@H](N(C)C)[C@@H]3C[C@@H]1C2
MIC (RN4250, Tet K efflux): 2 µg/mL

CNC(CC(C)C)C(=O)NC1C(=O)NC(CC(N)=O)C(=O)NC2C(=O)NC3C(=O)NC(C(=O)NC(C(=O)O)c4cc(O)cc(O)c4-c4cc3ccc4O)C(O)c3ccc(c(Cl)c3)Oc3cc2cc(c3OC2OC(CO)C(O)C(O)C2OC2CC(C)(NC(=O)CCCCCCCCC[N+](C)(C)C)C(O)C(C)O2)Oc2ccc(cc2Cl)C1O (stereo not drawn)
MIC (agar dilution; MRSA clinical isolate MRSA3): 512 µg/mL

CCN(CC)CCCN1/C(=C/c2cc[n+](C)c3ccccc23)Sc2ccccc21
MIC (microbial growth, broth dilution; ATCC29213): 2 µg/mL

CN(C)c1cc(CNCCC(C)(C)C)c(O)c2c1C[C@H]1C[C@H]3[C@H](N(C)C)C(O)=C(C(N)=O)C(=O)[C@@]3(O)C(O)=C1C2=O
MIC (microbial growth, broth dilution): 1 µg/mL

For quick reference, copied from above:
CNC(CC(C)C)C(=O)NC1C(=O)NC(CC(N)=O)C(=O)NC2C(=O)NC3C(=O)NC(C(=O)NC(C(=O)O)c4cc(O)cc(O)c4-c4cc3ccc4O)C(O)c3ccc(c(Cl)c3)Oc3cc2cc(c3OC2OC(CO)C(O)C(O)C2OC2CC(C)(NC(=O)CCCCCCCCC[N+](C)(C)C)C(O)C(C)O2)Oc2ccc(cc2Cl)C1O (stereo not drawn)
MIC (agar dilution; MRSA clinical isolate MRSA3): 512 µg/mL

CCN(CC)CCCN1/C(=C/c2cc[n+](C)c3ccccc23)Sc2ccccc21
MIC (microbial growth, broth dilution; ATCC29213): 2 µg/mL
